# Results pooled from the literature.
# Each numbered part is a random draw from the data of one study; scales do not carry over between parts.

# Series 1
# Target: Histone acetyltransferase KAT6A, winged helix 2, GST fusion (KAT6A, Homo sapiens, UniProt Q92794, residues 85-181)
# Method: protein binding microarray
# Form: double-stranded DNA, one strand shown
# Medium: in vitro
# Concentration: not given
# Notes: 8-mer, flanks averaged, mean of 2 arrays, mostly near background
# Reference: not given
# Reading: higher = stronger binding
# Construct (chain): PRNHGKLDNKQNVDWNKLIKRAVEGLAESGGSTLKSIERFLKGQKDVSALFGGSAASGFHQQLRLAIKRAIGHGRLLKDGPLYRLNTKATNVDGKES
Strand,E-score
ACATTCCG,-0.115
CCATCTCG,-0.00829
CGTCTGAC,-0.0938
AATTTCGA,-0.033
AGTGTTAT,-0.104
ACCAGCGG,0.134
AAGGGGAA,-0.0715
GGATCCGA,-0.0377
AGTTAGAT,-0.0455
AACAGTCG,-0.05
ACCTAAAG,0.105
GCCCCGCC,0.164
CCACTGGG,0.01
TAGCACCA,0.0281
ATTGACTG,-0.106
ACAGCTAC,-0.162
CTGAGTTC,0.0524
CATGTGAC,-0.197
CGGGCAAG,0.106
CTCTTAGA,0.164
CCTGAGAG,0.0134
CAGTGCAG,0.119
CACAATCC,0.0691
CACATAAG,-0.129
ACTCGGAG,0.145

# Series 2
# Target: Protein max, full length (MAX, Homo sapiens, UniProt P61244-2, residues 1-151)
# Method: protein-binding microarray
# Form: double-stranded DNA, one strand shown
# Medium: in vitro
# Concentration: not given
# Notes: k-mer, scored over probes, only values ≥0.25
# Reading: higher = stronger binding
Strand,E-score
ACAACGTG,0.464
GTGTTACA,0.28
TCGCCACA,0.265
ACGCTGTA,0.256
GCTCCCCA,0.26
ACGGGGCG,0.268
CATGTACG,0.26
ATCTCGTG,0.365
ACGAGGTG,0.282
ACGCGGAG,0.255
AAACGTGG,0.426
AACCACGT,0.466
CCCGCCAC,0.275
ATAACGTG,0.382
CATCACGC,0.375
CCTCGTGC,0.465
AGCATGCC,0.41
CAACACGA,0.293
ACTACACG,0.322
AAAGCGTG,0.435
CCATGCGA,0.395
TGCGGCAA,0.257
CGTGCAAC,0.387
TCGTGACA,0.296
CAATCACG,0.36

# Series 3
# Target: Hepatocyte nuclear factor 3-alpha (Foxa1, Mus musculus, UniProt P35582, residues 1-468, full length assumed)
# Method: EMSA with sequencing
# Form: double-stranded DNA, one strand shown
# Medium: in vitro
# Concentration: 10 and 20 nM
# Notes: whole designed probe, mean of two concentrations, ends assumed
# Reference: negative control set to 0
# Reading: higher = stronger binding
# Target sequence (chain): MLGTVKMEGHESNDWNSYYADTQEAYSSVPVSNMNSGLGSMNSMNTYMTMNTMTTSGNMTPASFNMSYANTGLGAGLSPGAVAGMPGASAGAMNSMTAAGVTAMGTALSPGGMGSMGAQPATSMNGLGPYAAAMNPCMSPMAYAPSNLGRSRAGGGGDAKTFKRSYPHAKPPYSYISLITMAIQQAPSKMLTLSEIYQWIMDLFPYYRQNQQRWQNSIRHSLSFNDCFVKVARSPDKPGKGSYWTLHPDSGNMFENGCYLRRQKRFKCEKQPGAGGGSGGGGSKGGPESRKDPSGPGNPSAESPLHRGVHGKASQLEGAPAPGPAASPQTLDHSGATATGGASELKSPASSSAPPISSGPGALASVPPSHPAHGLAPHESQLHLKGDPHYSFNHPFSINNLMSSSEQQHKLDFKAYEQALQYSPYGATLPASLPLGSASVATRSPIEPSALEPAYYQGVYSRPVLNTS
Strand,normalised bound fraction [ratio]
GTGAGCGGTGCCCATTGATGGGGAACGGAAGCACTAGAGGTAATATTTCCTTACTGGACCCCAGTCCTAAATTACCTACTTTTATCCAAATTAGGCTTATTTTAAGATATTTCAAAAAGTAATCTTGTAAAATGGTGAAATACACATGTTATGTCTGATGTTAGGCTTTACCTGGATTTTTAATCCCGTAAGACAAGAAATGTGAATATCAGAATGACTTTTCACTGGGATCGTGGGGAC,-0.0721
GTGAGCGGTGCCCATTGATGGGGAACATGTGGGAACTAATTGAGGACCATGTTTACAATGCGTACAAATCATAAATCAATTAGTTCATATTGATTTACAAACAAGGAAGAAAAAGTATTTGTTTACATTGATACTGTCCATGTAAACTTTTTTCAATTCAAAAGAAACACATAGTTCTGTCATAAAGTAGATTTTCTATCCCTTTTATTTTCTGAGCTTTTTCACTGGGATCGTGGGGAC,0.586
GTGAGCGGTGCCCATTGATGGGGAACGGACTTTGATAATTTTCTTTTAATTCCACACATCTATGATATTTTATCTTCTTAGGTAATAAAGGTATTAGAACTCTTTTCTTCTGCATCTGTGTTTACATTGAGATGCCATAACTTTTGTAGTATATAATGAATTCAGAGAAAAGAATAAAATCTAAATATTAAATAAAATTATATATTTATACATGAAAAATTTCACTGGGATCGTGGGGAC,0.339
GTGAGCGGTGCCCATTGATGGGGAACTGTAATTAGAGAAAAGTTCGGGTAGAAAACGCTATCATCCATTTCATTGTGTGGGTTGCTTAAGAAATGTTTATTTGTGGACCAGGAATTTCTTATTTGCATTGGCCCTGCCTTTGTGTATATATCCACTGCTTAGCAAAATCCTCTTCCTGAGCTGGTGAGCCTGGAAGCCTGGAAATGAAGGCCCATGGCATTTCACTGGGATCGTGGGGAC,0.343
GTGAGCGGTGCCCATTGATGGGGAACATCTTCCCCCTCTTCCTTGCCCCACCAGCTCACCTACGGGGGTTATTTGCACAAAGGAAAATAAATAAAGCCGGCATTCGTTAACCCTCTTCTGGCGCAAACTGCTGTTTGCTCTGGATCTAACATGGTCCTTTGGCGAGGCGTGGCTCCGGGAGAGCAAAGCACCGTGTCAGGGCCATGATCCGGGGTGGCCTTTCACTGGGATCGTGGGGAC,0.375
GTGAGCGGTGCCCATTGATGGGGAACATACACATAAACCAAGAGAAACAAAATACAATATTTATGTGTATATCTTTCTCATTGAACTTCACATTGCTAGAAGTATTTTTCTAAAGACAATGTAAACATGTCATTTCACTACTAAAAATTTTTTAGTAGATAATATCAATTGCTTTAAGAATAAAACAATTTTTAAAATAATTATATGAAAAAAGTTCTCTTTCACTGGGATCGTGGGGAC,0.335
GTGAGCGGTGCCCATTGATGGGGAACAGCAGAACCAATATAATCATGATTGCATACACCCATACGTTAATATGTTGGTAAATTGGATTTGTTATATAAAGAAATTGCAATGAAGTGCTAAGTAAACAAATATCTGTTTACATTATAATCTCTATGGCATGTTATATTTTAATTTCTATCTAGAAATGCATTGTGAAACCTAATAAAAAATTTGAAGCTTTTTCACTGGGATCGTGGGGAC,0.561
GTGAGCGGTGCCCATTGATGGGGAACCTCATTCCTTGCTTCCGCCAATAATCTGACTAGTAAAGAAGTCACTGCATGCCACAAATTGTCAGTGCTGACTTGAGTGACTCAGAAGTTATTTATTTACTTATTTAATATATGAGTGTCACAGATGCAAATTCCATCTTGAGAATACCAACTCCTGATGCCAACTGATTGTCAGTCATGGCTACAACAGGAGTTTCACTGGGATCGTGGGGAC,0.439

# Series 4
# Target: RNA binding protein fox-1 homolog 2, RRM domain, GST-SBP tag (RBFOX2, Homo sapiens, UniProt O43251-10, residues 100-194)
# Method: RNA Bind-n-Seq
# Form: RNA
# Medium: in vitro
# Concentration: 365 nM
# Notes: natural RNA segment, single round, ends assumed
# Reference: no-protein control
# Reading: higher = stronger binding
# Target sequence (chain): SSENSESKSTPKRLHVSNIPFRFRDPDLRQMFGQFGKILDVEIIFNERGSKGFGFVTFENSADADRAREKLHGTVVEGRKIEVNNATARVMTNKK
Strand,RBNS enrichment (R)
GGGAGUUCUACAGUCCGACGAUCCCCCUUCGUGUUGCCAUCAUCUUGUUGAAUCAGCCAUUUUAUCGAGGCACGUGAUCAGUGUUGCAACAUAAUGAAAAAGAUGGCUACUGUGCCUUGUGUUACUUAAUCAUUGGAAUUCUCGGGUGCCAA,0.956
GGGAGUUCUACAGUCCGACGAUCUCUAACUCGAUCAGUGUCUUUUCAGCACUUUGGAGCAUUUCCUUGGCUCAUCUAGUCUUCCUUUUGUAGCGCAUGGUUGGGAGGAAAAAGUGCAUGCCUCUGUACGUCACUGGAAUUCUCGGGUGCCAA,20.7
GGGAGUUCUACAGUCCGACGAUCGAAGUGGCUUAGGCCAAAGCUUCCUGUGUGAUGACGCACGUCCGAGACUGUUCCAUCUCAUUCCUCGCAAAUUUGAGCUCUUCUGAUCAAUUCUAAAUAUUUGAUUAAUUUGGAAUUCUCGGGUGCCAA,0.322
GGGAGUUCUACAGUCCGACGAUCAUGGGCUUUCUUCACCUGCUCUAGGUGCAAAGGCAUGUUGGGAAAGAGAUGGAUGUUGGGGAGGAAGAGAGGAGAUGGAUUUCAGUUGGGAGUUAGGAGGAGAGUAGGUGUGGAAUUCUCGGGUGCCAA,6.82
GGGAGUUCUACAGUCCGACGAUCAGAACUGCUUUGAAAAUUUGGAAUAUCUGAUAACUCCAGUGGGCCAAGACAUGGUGGAUAAAAAUGUGGCAAAGACGACAAGAAACUUCAGGUGGUAGCCCUGGUUGUGCUGGAAUUCUCGGGUGCCAA,1.06
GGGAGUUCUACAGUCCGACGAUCCCUGAGUUGCUUUCUGGAUCUGGGGCUUCAGGACUUGCUGCUUCAGUCAGCCUUUAUUAGCACCAAAGACUUUAUGAAGAUCCCACACACAGACACACAUCCCUUCCCGCUGGAAUUCUCGGGUGCCAA,0.55
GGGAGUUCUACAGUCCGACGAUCUAGCCUCCUAUCUGCAAGCAGAGUAGUGCUCUGCUCUGGGGAGGGGUCAUUGGAAACCAUAAUGCAGAGUGGGCCCCCUACUCCAUUUCCCAGCAAAAGGCUCCAGCUGGUGGAAUUCUCGGGUGCCAA,0.386
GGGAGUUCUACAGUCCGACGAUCGAAAGGAAUGAAUAAACUUUGUAGUAAUCAACUGUGAACUUCAAACCAGGUUGAUUUUAGUAACCCAAUUGCUUUGAUUUGACAUUAAUGUAGUCUUACAGGGCUGUGCUUGGAAUUCUCGGGUGCCAA,0.537
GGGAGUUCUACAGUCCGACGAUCAAUGUAGUCAGCACUUAAUGGAGAGUAUGGAGUAGUGCAUUUUGCAGGGAUUUUUAUUCCGUCUUUUGAGGGGAAGAAUCUCUUUUUUGCAUUAAAAAAUCAUAUAAACUUGGAAUUCUCGGGUGCCAA,0.383
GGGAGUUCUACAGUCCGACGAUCUGUAUUUUAGUAGCAGUUGAGGCAAUUAGUUUUAGGGUGAAUUUUUCACUGUUGAUUUUACUUUAAGAUGUAGCCAGAGAAAGUUUUGUUUUUAAGGCAUUUUAAAGCUGUGGAAUUCUCGGGUGCCAA,0.54
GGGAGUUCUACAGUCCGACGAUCUGUGUUCUCCUCUGUUACUGAUCUGGAAGUGUGGGAACGUGAACUGAAGCUGAUGGGCUGCGAACAUGGACUGAGCUUGUGGUGUGCUUUGCAGGAGAACUUGGAAGCAGUGGAAUUCUCGGGUGCCAA,0.984
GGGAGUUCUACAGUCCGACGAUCGCUCAUUGGUUCUGAUUUGCCCACUAAGGGUACAUGUGCGCUUAGUACAUUUGUAAAUACUCAGUUUUGUAUUGUAUGUAUAUGAUUGCUAUUCUCAGAGGUUUGGACUUUGGAAUUCUCGGGUGCCAA,0.447

# Series 5
# Target: PABPC1L2, full length, GST fusion (mouse, UniProt A0ABA7IW68)
# Method: RNAcompete
# Form: RNA
# Medium: in vitro
# Concentration: 20 nM
# Notes: 7-mer, probes averaged, single round
# Reference: mean of 7-mers
# Reading: higher = stronger binding
# Construct (chain): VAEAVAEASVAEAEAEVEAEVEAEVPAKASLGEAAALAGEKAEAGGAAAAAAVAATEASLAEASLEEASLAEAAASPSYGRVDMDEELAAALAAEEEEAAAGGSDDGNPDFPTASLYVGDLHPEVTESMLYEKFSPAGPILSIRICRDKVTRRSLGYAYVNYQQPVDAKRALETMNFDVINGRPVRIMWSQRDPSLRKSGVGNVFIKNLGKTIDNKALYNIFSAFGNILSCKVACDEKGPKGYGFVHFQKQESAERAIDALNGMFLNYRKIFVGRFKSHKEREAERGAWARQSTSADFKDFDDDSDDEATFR
Strand,7-mer Z-score
UGGUAAA,0.593
UUUCUGG,-0.378
AUGGGAA,0.119
UGAGUCG,-0.454
ACCGCUU,-0.213
AAAUCAA,1.06
UCCAAGG,-0.19
GGGAGGG,0.463
GUGCGCG,-0.157
CCAGCUU,-0.206
UCGUCCA,-0.391
CACAGUA,-0.117
CCCAUGG,-0.267
AUUAAUC,-0.17
UGACGAC,-0.00833
GCGUCCU,-0.335
ACGGGCG,0.273
UUUUGAC,-0.103
UGAAGAU,0.0207
AUGGAAA,0.742
UAGGCAC,0.0424
UGGCCUC,-0.277
CGCUCGG,-0.213

# A few entries again (series 1):
Strand,E-score
TAGCACCA,0.0281
CATGTGAC,-0.197
AGTTAGAT,-0.0455
CGGGCAAG,0.106
ATTGACTG,-0.106
